Assay results from different studies.
Every numbered part comes from another study and shows a few of its results, in no order.
Sequence of UniProt P11229 (whole entry, looked up): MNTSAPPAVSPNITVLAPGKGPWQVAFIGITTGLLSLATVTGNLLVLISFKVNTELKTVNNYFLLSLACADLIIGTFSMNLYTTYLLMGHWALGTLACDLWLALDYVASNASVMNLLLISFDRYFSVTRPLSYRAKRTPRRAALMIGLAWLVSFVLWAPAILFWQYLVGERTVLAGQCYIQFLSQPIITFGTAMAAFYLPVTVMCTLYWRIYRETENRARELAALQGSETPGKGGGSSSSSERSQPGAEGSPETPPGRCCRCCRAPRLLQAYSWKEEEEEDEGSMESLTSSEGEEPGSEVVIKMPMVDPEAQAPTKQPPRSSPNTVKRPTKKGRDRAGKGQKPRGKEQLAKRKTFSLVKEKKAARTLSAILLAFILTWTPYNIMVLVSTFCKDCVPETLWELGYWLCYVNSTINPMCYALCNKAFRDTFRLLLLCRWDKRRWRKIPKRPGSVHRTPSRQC
Sequence of UniProt P41145 (whole entry, looked up): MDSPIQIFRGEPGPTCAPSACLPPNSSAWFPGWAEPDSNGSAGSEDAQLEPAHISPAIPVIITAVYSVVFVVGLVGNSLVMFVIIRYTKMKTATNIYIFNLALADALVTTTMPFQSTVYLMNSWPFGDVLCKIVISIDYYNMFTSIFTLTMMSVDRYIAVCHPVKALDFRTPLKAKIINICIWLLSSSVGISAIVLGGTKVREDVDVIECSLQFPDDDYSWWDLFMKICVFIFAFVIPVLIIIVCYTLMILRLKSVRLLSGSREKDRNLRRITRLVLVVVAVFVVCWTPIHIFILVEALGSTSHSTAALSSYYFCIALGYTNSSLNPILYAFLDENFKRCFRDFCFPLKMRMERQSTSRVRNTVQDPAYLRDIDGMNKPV
Sequence of UniProt P20309 (whole entry, looked up): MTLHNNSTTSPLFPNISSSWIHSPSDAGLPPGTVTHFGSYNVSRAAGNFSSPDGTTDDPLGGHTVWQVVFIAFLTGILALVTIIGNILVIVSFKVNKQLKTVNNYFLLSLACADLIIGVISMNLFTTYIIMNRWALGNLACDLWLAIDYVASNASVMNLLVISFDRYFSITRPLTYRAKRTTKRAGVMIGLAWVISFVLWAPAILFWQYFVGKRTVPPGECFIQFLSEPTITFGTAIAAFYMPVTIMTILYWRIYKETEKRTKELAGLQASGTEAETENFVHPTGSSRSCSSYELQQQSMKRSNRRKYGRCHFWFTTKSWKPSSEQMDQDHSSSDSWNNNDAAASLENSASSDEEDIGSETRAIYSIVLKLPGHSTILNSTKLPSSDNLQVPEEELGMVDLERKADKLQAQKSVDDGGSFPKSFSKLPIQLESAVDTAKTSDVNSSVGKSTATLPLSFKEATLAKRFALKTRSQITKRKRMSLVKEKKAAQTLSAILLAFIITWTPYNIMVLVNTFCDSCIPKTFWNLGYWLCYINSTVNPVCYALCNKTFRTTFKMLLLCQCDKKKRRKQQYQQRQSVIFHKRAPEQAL
Sequence of UniProt P35372 (whole entry, looked up): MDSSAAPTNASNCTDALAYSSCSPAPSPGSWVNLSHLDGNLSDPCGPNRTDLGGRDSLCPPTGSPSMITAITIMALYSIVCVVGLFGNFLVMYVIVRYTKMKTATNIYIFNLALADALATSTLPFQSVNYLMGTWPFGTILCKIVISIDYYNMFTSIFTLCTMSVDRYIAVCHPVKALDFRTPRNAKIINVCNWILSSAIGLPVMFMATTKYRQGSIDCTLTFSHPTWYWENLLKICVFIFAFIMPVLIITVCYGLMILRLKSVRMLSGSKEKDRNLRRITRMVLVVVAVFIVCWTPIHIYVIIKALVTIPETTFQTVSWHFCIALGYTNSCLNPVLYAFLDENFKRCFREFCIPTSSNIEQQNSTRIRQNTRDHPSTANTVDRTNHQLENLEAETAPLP
Sequence of UniProt P28223 (whole entry, looked up): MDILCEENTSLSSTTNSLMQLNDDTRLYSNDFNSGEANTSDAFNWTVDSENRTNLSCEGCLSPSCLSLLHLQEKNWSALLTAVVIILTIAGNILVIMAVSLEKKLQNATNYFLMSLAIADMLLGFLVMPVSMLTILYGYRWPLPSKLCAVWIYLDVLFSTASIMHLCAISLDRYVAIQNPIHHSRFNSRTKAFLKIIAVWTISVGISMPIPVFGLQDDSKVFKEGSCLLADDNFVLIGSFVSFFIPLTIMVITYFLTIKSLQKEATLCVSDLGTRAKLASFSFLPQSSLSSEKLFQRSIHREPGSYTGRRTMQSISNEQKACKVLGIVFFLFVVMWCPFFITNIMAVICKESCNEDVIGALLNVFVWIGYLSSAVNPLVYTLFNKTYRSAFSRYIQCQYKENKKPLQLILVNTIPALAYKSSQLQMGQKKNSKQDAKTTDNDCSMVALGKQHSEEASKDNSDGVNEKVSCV

Study 1 — effect on: cell-free assay; tested at: 10 µM; measurement: inhibition
Compound: CN1C(=O)[C@@H](N2CCc3c(nn(Cc4ccccc4)c3Br)C2=O)COc2ccccc21
5-hydroxytryptamine receptor 2A (HTR2A, Homo sapiens, UniProt P28223): 50.6%
Kappa-type opioid receptor (OPRK1, Homo sapiens, UniProt P41145): 16.5%
Delta-type opioid receptor (OPRD1, Homo sapiens, UniProt P41143): 30.1%
5-hydroxytryptamine receptor 1A (HTR1A, Homo sapiens, UniProt P08908): 16.9%
D(1B) dopamine receptor (DRD5, Homo sapiens, UniProt P21918): 41.7%
Muscarinic acetylcholine receptor M1 (CHRM1, Homo sapiens, UniProt P11229): 21.6%
Muscarinic acetylcholine receptor M3 (CHRM3, Homo sapiens, UniProt P20309): 1.23%
Mu-type opioid receptor (OPRM1, Homo sapiens, UniProt P35372): 14.6%

Study 2 — effect on: enzyme activity; mode: inhibitor; tested at: 77 µM; baseline: untreated; measurement: remaining activity
Target: DNA polymerase theta, ATPase domain (POLQ, Homo sapiens, UniProt O75417)
Sequence of UniProt O75417 (whole entry, unmodified, looked up): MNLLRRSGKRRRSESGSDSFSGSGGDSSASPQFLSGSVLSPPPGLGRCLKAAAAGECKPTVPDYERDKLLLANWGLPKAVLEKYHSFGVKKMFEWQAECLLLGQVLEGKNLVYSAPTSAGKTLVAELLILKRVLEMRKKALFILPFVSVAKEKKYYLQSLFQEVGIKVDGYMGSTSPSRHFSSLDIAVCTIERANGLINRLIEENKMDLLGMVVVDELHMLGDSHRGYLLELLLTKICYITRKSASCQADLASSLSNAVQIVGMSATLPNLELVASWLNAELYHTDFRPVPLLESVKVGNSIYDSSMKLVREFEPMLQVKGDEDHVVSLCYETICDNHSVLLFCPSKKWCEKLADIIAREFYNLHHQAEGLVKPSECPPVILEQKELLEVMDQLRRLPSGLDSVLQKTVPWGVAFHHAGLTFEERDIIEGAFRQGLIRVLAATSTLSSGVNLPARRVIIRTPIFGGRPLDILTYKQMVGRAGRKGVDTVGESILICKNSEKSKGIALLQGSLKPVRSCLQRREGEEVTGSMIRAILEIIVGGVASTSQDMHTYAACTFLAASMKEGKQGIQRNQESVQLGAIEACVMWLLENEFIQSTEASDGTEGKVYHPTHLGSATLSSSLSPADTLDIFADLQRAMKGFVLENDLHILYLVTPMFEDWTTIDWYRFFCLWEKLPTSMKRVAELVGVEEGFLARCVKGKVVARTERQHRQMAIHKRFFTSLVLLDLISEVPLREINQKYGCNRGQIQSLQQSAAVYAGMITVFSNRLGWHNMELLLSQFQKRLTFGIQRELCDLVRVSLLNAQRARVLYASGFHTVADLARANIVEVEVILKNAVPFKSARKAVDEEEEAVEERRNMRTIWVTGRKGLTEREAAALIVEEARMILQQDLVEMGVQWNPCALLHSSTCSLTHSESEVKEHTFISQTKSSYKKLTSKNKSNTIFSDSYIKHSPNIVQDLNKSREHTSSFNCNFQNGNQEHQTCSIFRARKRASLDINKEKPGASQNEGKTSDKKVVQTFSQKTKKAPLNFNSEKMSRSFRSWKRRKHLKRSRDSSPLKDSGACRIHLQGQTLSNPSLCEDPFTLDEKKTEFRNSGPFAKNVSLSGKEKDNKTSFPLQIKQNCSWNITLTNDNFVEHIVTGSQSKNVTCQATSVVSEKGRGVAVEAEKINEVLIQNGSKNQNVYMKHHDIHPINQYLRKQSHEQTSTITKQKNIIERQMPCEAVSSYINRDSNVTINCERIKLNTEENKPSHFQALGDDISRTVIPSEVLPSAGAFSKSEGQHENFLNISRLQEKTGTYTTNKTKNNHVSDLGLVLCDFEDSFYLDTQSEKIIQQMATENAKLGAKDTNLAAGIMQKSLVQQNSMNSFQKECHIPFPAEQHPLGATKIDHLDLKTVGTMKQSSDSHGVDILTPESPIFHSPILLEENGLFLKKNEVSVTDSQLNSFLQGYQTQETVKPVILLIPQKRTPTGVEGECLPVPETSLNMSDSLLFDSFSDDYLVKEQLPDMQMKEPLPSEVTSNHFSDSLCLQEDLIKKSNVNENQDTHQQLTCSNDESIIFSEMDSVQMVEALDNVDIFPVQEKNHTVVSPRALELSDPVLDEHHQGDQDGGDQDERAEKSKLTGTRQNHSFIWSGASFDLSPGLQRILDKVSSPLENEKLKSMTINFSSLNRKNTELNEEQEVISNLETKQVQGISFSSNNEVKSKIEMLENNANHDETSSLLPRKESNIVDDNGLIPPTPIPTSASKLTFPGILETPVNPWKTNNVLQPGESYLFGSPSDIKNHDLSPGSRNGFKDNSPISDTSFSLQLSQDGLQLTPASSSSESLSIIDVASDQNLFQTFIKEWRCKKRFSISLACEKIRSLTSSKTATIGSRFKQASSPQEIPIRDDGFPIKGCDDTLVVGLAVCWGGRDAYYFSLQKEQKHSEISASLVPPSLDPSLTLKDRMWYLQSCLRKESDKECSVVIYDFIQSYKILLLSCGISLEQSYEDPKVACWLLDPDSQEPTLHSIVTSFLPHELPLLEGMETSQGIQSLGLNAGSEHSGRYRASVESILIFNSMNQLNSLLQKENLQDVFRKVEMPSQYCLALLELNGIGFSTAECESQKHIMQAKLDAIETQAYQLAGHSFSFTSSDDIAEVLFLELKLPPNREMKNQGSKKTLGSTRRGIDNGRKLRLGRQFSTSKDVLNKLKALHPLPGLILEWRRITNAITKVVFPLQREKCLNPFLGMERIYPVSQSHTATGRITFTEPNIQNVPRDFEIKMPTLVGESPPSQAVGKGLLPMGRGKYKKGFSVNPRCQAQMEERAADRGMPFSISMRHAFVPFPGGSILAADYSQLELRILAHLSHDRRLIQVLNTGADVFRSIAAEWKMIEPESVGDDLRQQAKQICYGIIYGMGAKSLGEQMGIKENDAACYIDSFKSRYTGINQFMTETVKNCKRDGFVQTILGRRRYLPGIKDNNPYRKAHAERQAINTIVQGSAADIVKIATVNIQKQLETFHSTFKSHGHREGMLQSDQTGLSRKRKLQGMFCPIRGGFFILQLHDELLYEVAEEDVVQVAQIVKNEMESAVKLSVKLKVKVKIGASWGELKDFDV
CC[C@@H](C)C(=O)O[C@H]1[C@H](O)[C@H]2[C@@H](CN3C[C@@H](C)CC[C@H]3[C@@]2(C)O)[C@@H]2C[C@]34O[C@]5(O)[C@@H](OC(=O)[C@@](C)(O)CC)CC[C@@]3(C)[C@@H]5[C@@H](OC(C)=O)[C@@H](OC(C)=O)[C@H]4[C@@]21O: 94.7%
CCC1(CC)C(=O)C=CNC1=O: 101%
Nc1nc(N)nc(NC2CC2)n1: 89.2%
COc1ccc2c3c([nH]c2c1)C(C)=NCC3: 101%
CC(C)NCC(O)c1ccccc1Cl (stereo not shown): 101%
CN1[C@@H]2CC[C@H]1C[C@@H](OC1c3ccccc3CCc3ccccc31)C2: 101%

Study 3 — organism: Vesicular stomatitis virus; effect on: pseudovirus infection; technique: FDA-approved drug library screen; tested at: concentration not given; setting: VSV-G control pseudotype; baseline: vehicle; measurement: GFP-positive cells
CC(O)(P(=O)([O-])O)P(=O)([O-])O.[Na+].[Na+]: 115%
CC[C@H](C)[C@H](N)C1=N[C@H](C(=O)N[C@@H](CC(C)C)C(=O)N[C@H](CCC(=O)O)C(=O)N[C@H](C(=O)N[C@H]2CCCCNC(=O)[C@H](CC(N)=O)NC(=O)[C@@H](CC(=O)O)NC(=O)[C@H](Cc3cnc[nH]3)NC(=O)[C@@H](Cc3ccccc3)NC(=O)[C@H]([C@@H](C)CC)NC(=O)[C@@H](CCCN)NC2=O)[C@@H](C)CC)CS1: 122%
Cl.NCC(=O)CCC(=O)O: 124%
O=[As]O[As]=O (stereo not shown): 105%
C[C@@H]1C[C@H]2[C@@H]3CCC4=CC(=O)C=C[C@]4(C)[C@@]3(F)[C@@H](O)C[C@]2(C)[C@@]1(O)C(=O)CO: 125%
CCN1CC(CCN2CCOCC2)C(c2ccccc2)(c2ccccc2)C1=O.Cl.O (stereo not shown): 136%
Cl.NC(N)=NCCC[C@H](N)C(=O)O: 117%
CCN(CC)CCNC(=O)c1cc(Cl)c(N)cc1OC.Cl: 124%

Study 4 — target: chymotrypsin; effect on: enzyme activity; mode: inhibitor; tested at: 10 µM; setting: with DTT; measurement: inhibition
NC[C@H](O)c1ccc(O)c(O)c1: 2%
S=C=NCc1ccccc1: 10.2%
Cc1ccc(C)c(-n2sc3cc(F)ccc3c2=O)c1: -0.5%
O=C1C=Cc2cc(Br)ccc2C1=O: 8.5%
CC(CN1CC(=O)NC(=O)C1)N1CC(=O)NC(=O)C1 (stereo not shown): -0.9%
CC(C)Nc1cccnc1N1CCN(C(=O)c2cc3cc(NS(C)(=O)=O)ccc3[nH]2)CC1.CS(=O)(=O)O: 9.1%
O=C(O)c1cc(O)c2c(c1)[C@H]([C@H]1c3cc(C(=O)O)cc(O)c3C(=O)c3c(O[C@@H]4O[C@H](CO)[C@@H](O)[C@H](O)[C@H]4O)cccc31)c1cccc(O[C@@H]3O[C@H](CO)[C@@H](O)[C@H](O)[C@H]3O)c1C2=O: 2.7%
COc1ncc(-c2ccc3nccc(-c4ccnnc4)c3c2)cc1NS(=O)(=O)c1ccc(F)cc1F: 9%
CC1(C)C(/C=C/C=C/C=C/C=C2\N(CCCCS(=O)(=O)[O-])c3ccc4ccccc4c3C2(C)C)=[N+](CCCCS(=O)(=O)[O-])c2ccc3ccccc3c21.[Na+]: 6.1%

A few entries again (study 1):
Kappa-type opioid receptor (OPRK1, Homo sapiens, UniProt P41145): 16.5%
5-hydroxytryptamine receptor 1A (HTR1A, Homo sapiens, UniProt P08908): 16.9%
5-hydroxytryptamine receptor 2A (HTR2A, Homo sapiens, UniProt P28223): 50.6%
Muscarinic acetylcholine receptor M3 (CHRM3, Homo sapiens, UniProt P20309): 1.23%
